Results gathered from unrelated publications.
Numbers after ± are the reported error.

Compound | test | system | conditions | tissue uptake
CCCC[C@H](NC(=O)CNC(=O)CNC(=O)CN1CCN(CC(=O)O)CCN(CC(=O)O)CCN(CC(=O)O)CC1)C(=O)N[C@H]1CC(=O)NCCCC[C@@H](C(N)=O)NC(=O)[C@H](Cc2c[nH]c3ccccc23)NC(=O)[C@H](CCCNC(=N)N)NC(=O)[C@@H](Cc2ccccc2)NC(=O)[C@H](Cc2c[nH]cn2)NC1=O [gallium-67 labelled] |  | female C57 mice, B16/F1 melanoma, muscle | intravenous, 0.037 MBq, 2 h | 0.34 ± 0.1 %ID/g
CCCC[C@@H]1NC(=O)[C@@H](NC(=O)[C@H](CCC(=O)O)NC(=O)CNC(=O)CN2CCN(CC(=O)O)CCN(CC(=O)O)CCN(CC(=O)O)CC2)CCCCNC(=O)C[C@@H](C(N)=O)NC(=O)[C@H](C(C)C)NC(=O)[C@@H]2CCCN2C(=O)[C@H](CCCNC(=N)N)NC(=O)CNC(=O)[C@H](Cc2c[nH]c3ccccc23)NC(=O)[C@H](CCCNC(=N)N)NC(=O)[C@@H](Cc2ccccc2)NC(=O)[C@H](Cc2c[nH]cn2)NC(=O)[C@H](CCC(=O)O)NC1=O [gallium-67 labelled] |  | C57 mice, B16/F1 flank melanoma, liver | intravenous, 2 h, with: blocking peptide 10 µg | 0.29 ± 0.04 %ID/g
O=C([O-])CN1CCN(CC(=O)[O-])CCN(CC(=O)[O-])CCN(CC(=O)[O-])CC1.[64Cu+2] |  | healthy athymic nude mice, liver | intravenous, 15 min | 2.32 %ID/g
CCCC[C@H](NC(=O)CN1CCC(NC(=O)CN2CCN(CC(=O)O)CCN(CC(=O)O)CCN(CC(=O)O)CC2)CC1)C(=O)N[C@H]1CC(=O)NCCCC[C@@H](C(N)=O)NC(=O)[C@H](Cc2c[nH]c3ccccc23)NC(=O)[C@H](CCCNC(=N)N)NC(=O)[C@@H](Cc2ccccc2)NC(=O)[C@H](Cc2c[nH]cn2)NC1=O [gallium-68 labelled] |  | C57BL/6J mice male B16-F10 tumour, heart | 2 h post injection, unblocked | 0.1 %ID/g
N=C(N)NCCC[C@H](NC(=O)CON=C[C@H](F)[C@@H](O)[C@H](O)[C@H](O)CO)C(=O)NCC(=O)N[C@@H](CC(=O)O)C(=O)O [fluorine-18 labelled] |  | nude mice U-87 MG tumour, blood | intravenous, 2 h | 0.02 %ID/g
CC(C)[C@H](NC(=O)[C@@H]1CCCN1C(=O)[C@H](CCCNC(=N)N)NC(=O)[C@H](CS)NC(=O)[C@H](Cc1c[nH]c2ccccc12)NC(=O)[C@H](CCCNC(=N)N)NC(=O)[C@@H](Cc1ccccc1)NC(=O)[C@H](Cc1c[nH]cn1)NC(=O)[C@H](CCC(=O)O)NC(=O)[C@H](CS)NC(=O)[C@H](CS)NC(=O)CNC(=O)[C@@H]1CC(=O)N[C@@H](CCCNC(=N)N)C(=O)NCC(=O)N[C@@H](CC(=O)O)C(=O)N[C@H](Cc2ccc(O)cc2)C(=O)N1)C(N)=O [technetium-99m labelled] |  | C57 mice B16/F1 melanoma female, intestines | iv, 0.037 MBq, 4 h | 4.71 ± 2.8 %ID
CCCC[C@H](NC(=O)CNC(=O)CNC(=O)CN1CCN(CC(=O)O)CCN(CC(=O)O)CC1)C(=O)N[C@H]1CC(=O)NCCCC[C@@H](C(N)=O)NC(=O)[C@H](Cc2c[nH]c3ccccc23)NC(=O)[C@H](CCCNC(=N)N)NC(=O)[C@@H](Cc2ccccc2)NC(=O)[C@H](Cc2c[nH]cn2)NC1=O [gallium-67 labelled] |  | female C57 mice, B16/F1 melanoma, blood | intravenous, 0.037 MBq, 2 h | 0.4 ± 0.19 %ID/g
CC(C)[C@H](NC(=O)[C@@H]1CCCN1C(=O)[C@H](CCCNC(=N)N)NC(=O)[C@H](CS)NC(=O)[C@H](Cc1c[nH]c2ccccc12)NC(=O)[C@H](CCCNC(=N)N)NC(=O)[C@@H](Cc1ccccc1)NC(=O)[C@H](Cc1c[nH]cn1)NC(=O)[C@H](CCC(=O)O)NC(=O)[C@H](CS)NC(=O)[C@H](CS)NC(=O)[C@@H]1CC(=O)N[C@@H](CCCNC(=N)N)C(=O)NCC(=O)N[C@@H](CC(=O)O)C(=O)N[C@H](Cc2ccc(O)cc2)C(=O)N1)C(N)=O [technetium-99m labelled] |  | C57 mice B16/F1 melanoma female, intestines | iv, 0.037 MBq, 24 h | 1.22 ± 0.21 %ID
CN1C(=O)[C@@H](Cc2ccc(O)c(I)c2)NC(=O)CNC(=O)[C@H](Cc2ccc3ccccc3c2)NC(=O)[C@H](CCCNC(=N)N)NC(=O)[C@H]1CCCNC(=O)c1ccc(CNC(=O)CN2CCN(CC(=O)O)CCN(CC(=O)O)CCN(CC(=O)O)CC2)cc1 [lutetium-177 labelled] | item: 177Lu radioactivity | female CB-17 SCID mice, Daudi xenograft, pancreas | intravenous, 0.16 nmol per mouse, 6 h | 0.09 ± 0.01 %ID/g
O=C([O-])c1cccc(CN(CCN(Cc2cn(Cc3ccccc3)nn2)Cc2cccc(C(=O)[O-])n2)Cc2cn(Cc3ccccc3)nn2)n1.[64Cu+2] |  | healthy athymic nude mice, spleen | intravenous, 1 h | 2.27 %ID/g
O=C([O-])CN1CCN(CC(=O)O)CCN(CC(=O)[O-])CCN(CC(=O)NCC2CCC(C(=O)NC(Cc3ccc4ccccc4c3)C(=O)NCCCCC(NC(=O)NC(CCC(=O)O)C(=O)O)C(=O)O)CC2)CC1.[212Pb+2] (stereo not shown) |  | athymic mice, C4-2 prostate cancer xenograft, kidney | intravenous, 2 h, 212Pb-labelled | 52.8 ± 26.6 %ID/g
O=C([O-])CN1CCN(CC(=O)[O-])CCN(CC(=O)NCCc2ccc3c(c2)C2C=CCC2C(c2cc4c(cc2Br)OCO4)N3)CCN(CC(=O)[O-])CC1.[111In+3] (stereo not shown) |  | mice with Hec50 tumour xenograft, liver | 2 h, with: G-1 5 µg blocking | 4.98 ± 0.71 %ID/g
NC12CNCCNCC(NCc3ccc(CNC(=O)CCCC(=O)NCc4ccc(-c5nncnn5)cc4)cc3)(CNCCNC1)CNCCNC2.[64Cu+2] |  | athymic nude mice, SW1222 xenograft, spleen | 24 h post-injection, 24 h pretargeting interval, with: huA33-TCO pretargeting | 0.64 ± 0.04 %ID/g

Some of these lines once more:
Compound | test | system | conditions | tissue uptake
O=C([O-])c1cccc(CN(CCN(Cc2cn(Cc3ccccc3)nn2)Cc2cccc(C(=O)[O-])n2)Cc2cn(Cc3ccccc3)nn2)n1.[64Cu+2] |  | healthy athymic nude mice, spleen | intravenous, 1 h | 2.27 %ID/g
CCCC[C@H](NC(=O)CNC(=O)CNC(=O)CN1CCN(CC(=O)O)CCN(CC(=O)O)CCN(CC(=O)O)CC1)C(=O)N[C@H]1CC(=O)NCCCC[C@@H](C(N)=O)NC(=O)[C@H](Cc2c[nH]c3ccccc23)NC(=O)[C@H](CCCNC(=N)N)NC(=O)[C@@H](Cc2ccccc2)NC(=O)[C@H](Cc2c[nH]cn2)NC1=O [gallium-67 labelled] |  | female C57 mice, B16/F1 melanoma, muscle | intravenous, 0.037 MBq, 2 h | 0.34 ± 0.1 %ID/g
